Assay results pooled from the literature.
Parts stem from different laboratories: compare values within a part only.

Study 1
Target: Sal-like protein 4, full length isoform B (SALL4, Homo sapiens, UniProt Q9UJQ4-2, residues 1-616)
Method: universal PBM
Molecule type: double-stranded DNA, one strand shown
Matrix: in vitro
Concentration: not given
Notes: 8-mer, flanks averaged, mean of replicates
Reading: higher = stronger binding
Measurement: E-score
CAGTTAAC: -0.195
GAGGAGAC: -0.181
AAAGATTG: 0.106
GCGGGAGA: -0.258
TTCGTCAA: 0.138
GCACTGTA: -0.0923
AGAAGACC: -0.159
GGCGACGA: -0.243
AGAGTAAT: 0.27
CGTTGATA: 0.141
ATGATCTC: 0.0372
CAACCAAC: -0.1
AGATGCCG: -0.222
CGCGCTAC: -0.0369
ATCATCAG: 0.147
CCCCAGAG: -0.257
CACGACCC: -0.0747
CCCTAAAA: 0.0562
AAGGGGGA: -0.0711
TAGACGGA: 0.0536
AGCGTCAT: 0.0228
ATTCCCGA: -0.0786

Study 2
Target: RNA binding protein fox-1 homolog 2, RRM domain, GST-SBP tag (RBFOX2, Homo sapiens, UniProt O43251-10, residues 100-194)
Method: RNA Bind-n-Seq
Molecule type: RNA
Matrix: in vitro
Concentration: 365 nM
Notes: natural RNA segment, single round, ends assumed
Baseline: no-protein control
Reading: higher = stronger binding
Measurement: RBNS enrichment (R)
Residues (chain): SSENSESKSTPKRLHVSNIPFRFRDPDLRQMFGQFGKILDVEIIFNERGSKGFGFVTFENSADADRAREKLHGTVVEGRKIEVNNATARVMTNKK
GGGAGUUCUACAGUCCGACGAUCUGGUGAAGAGCAUUUUUGUGAAGUGGGUUCUGCAAGGAGCCUAUAAAGCCAAGGGUGGUGUCCAUUUCUGGGAAUGGUUAAACACAAAAGGCUGAUAGCUGGUAUCACAUUGGAAUUCUCGGGUGCCAA: 0.325
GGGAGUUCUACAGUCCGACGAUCUUGUGAAAUAGUAUCAUGUGAGAAACAGUUUGUAGAAAAAAACUAUACCUGGGAAGACCUUUGCAACAUUGUUCCUUCCAUGGGCCAAGACUCAGUUAGGAGGCAUAAAUUGGAAUUCUCGGGUGCCAA: 0.32
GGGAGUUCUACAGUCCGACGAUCUCUUAGAUGACUGCUUAUUUAUGUGUAACAUAAAUCCCACAUAUUCUAAUGACAACUUCUUUAAUCCUUCCGGGUCAUAUAUUAUAUUUCCAUAGUAUCACAUACUAUUAUGGAAUUCUCGGGUGCCAA: 0.585
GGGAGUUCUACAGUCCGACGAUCAGCGAUCAGAGUAUGUCUUGUGUGUGAGAGUGAGCCUUACAAUCAUGUCCACUGAAGCCACUGGCAGUGGCUCCCAACCCCCAUCCCAUUAGAAGGGACUUGGCCUGCCCUGGAAUUCUCGGGUGCCAA: 0.379
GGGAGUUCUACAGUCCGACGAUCGUCCACGUUCCAGCCGAGUCACUGCCUGACCGGCUCCAUGGCAGCUCCCCAUCUUCCCUAGAGGCUGCCUGCGCAUCUGGAGCCUGCGCUCCGGCUCAGCGACCUUUCCUUGGAAUUCUCGGGUGCCAA: 0.439
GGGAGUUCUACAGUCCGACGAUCUCUUUCUGUUGCUGGUUAUUGAGUGUUGAAAUUAUUGACCAAAAACCUUUCUUUAGUGAAUGUCAAAUCAGAAACAAAUUGUAGACCUAGGAACUGUAUUAAAGUUUAGUUGGAAUUCUCGGGUGCCAA: 0.675
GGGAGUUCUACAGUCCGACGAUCUGUGAAUUCGCAUUGCUGUUUUGUGUACUAAAACGUAACCAUUGGCAUUGUGAACAACAAGCUCUUAGUGGUGUAUUUACCUGUUAAAACUUAAAAGCAGUGUUAGUGAGUGGAAUUCUCGGGUGCCAA: 0.23
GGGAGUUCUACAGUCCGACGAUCUGACUGACGGCCCCUUGUGCAAGCUCAUUCUUCAGUGGAUCCUUCAGUGGAGUGGUGACACGUGCCAGCGGUCACUCUGCCACAUCACUUCCUUCUUGAAAGCCUAAGAGUGGAAUUCUCGGGUGCCAA: 0.414
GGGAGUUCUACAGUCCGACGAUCCCCUUGAACUUGUGAUCCUUCUGCCUCAGUUGCCUCCCAAAUUAUAGGGUUAUGUCACCAACUUGCAGCCUGAGACACUUGUUUUAAAAAGCUCAGUGUUUUAUUUCAGUUGGAAUUCUCGGGUGCCAA: 0.426

Study 3
Target: RING finger protein unkempt homolog, zinc fingers 1-6, GST-SBP tag (UNK, Homo sapiens, UniProt Q9C0B0, residues 30-357)
Method: RNA Bind-n-Seq
Molecule type: RNA
Matrix: in vitro
Concentration: not given
Notes: RNA with constant flanks, human and mouse sites, ends assumed
Baseline: input RNA pool
Reading: higher = stronger binding
Measurement: bound/input enrichment
Target sequence (chain): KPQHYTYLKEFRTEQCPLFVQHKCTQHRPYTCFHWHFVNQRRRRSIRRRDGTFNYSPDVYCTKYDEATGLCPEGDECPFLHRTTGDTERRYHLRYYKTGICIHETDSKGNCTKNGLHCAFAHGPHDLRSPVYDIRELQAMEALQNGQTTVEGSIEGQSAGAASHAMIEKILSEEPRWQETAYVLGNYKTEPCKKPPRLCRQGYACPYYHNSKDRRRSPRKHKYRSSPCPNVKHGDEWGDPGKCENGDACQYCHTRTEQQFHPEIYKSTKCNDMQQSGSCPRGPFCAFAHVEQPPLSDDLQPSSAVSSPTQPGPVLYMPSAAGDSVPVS
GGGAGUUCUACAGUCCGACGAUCGGAAAGUCCUGGCUGCCGGAACGCCUCAGUGAGGUAAAGUCUCUUGGCGUUUUGACUGGGACCAGCCCAGCCAUUCUCAGCCUCUCGACAUGUAAUUUCAUUUCUUUUACGAAAGCUCGUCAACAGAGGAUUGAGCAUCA: 0.0603 ratio
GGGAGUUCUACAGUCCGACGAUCUUUAUCCGAACACUUCUGGCUGUUACACGACCAUUUAUCAGUUCAAAGUUCAGUCAGAAGAUCAGAUACGUCUUUAACUUGGCCGAGCUGGCAGAGCUUGUUCCCAUGGAGUAUGUCGGCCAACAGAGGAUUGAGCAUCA: 0.159 ratio
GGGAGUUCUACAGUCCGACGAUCUUUAAGACUUUAUAUUGUGUUUCAAACAAAGAAAGCCCUAACCAAAACAAUACUACCCACUUAGAUAUUGCUGCAGUUCAAGGUUUUUCAGUCAUCUUGGACUUCCUGUAUUCUGGGAACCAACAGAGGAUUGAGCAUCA: 0.468 ratio
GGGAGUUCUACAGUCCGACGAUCUGUGGUCUGAUCAGUUAAUUUGUAUGUAGCAGUGUAUGCUCUCAUAUACAAUUACUGACCUAUGCUCUAAAACAUGAAUGCUUUGUUACAGACCCAAGCUGUCCAUUUCUGUGAUGGGUUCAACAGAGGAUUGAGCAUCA: 0.0778 ratio
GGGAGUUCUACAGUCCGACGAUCGACUAUCUCCCAGAUGCCGGCAUUACAGGUAUUUGCCACCACACCCAGCUAAGAAGUUCUCUCUUUUUUUCUCUUCUCUCUUCUCUUUCCCUCCCUUCCUCCUUCCCUCUAAAAUUAACGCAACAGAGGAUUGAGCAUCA: 1.32 ratio
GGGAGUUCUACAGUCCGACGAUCGACCACGUUCUAUCUGUUCAUUUGUCUGGGUAUAGUCACUCCUGGUGAUGAUAUGGGCUGAAAUGUCUCCACGUCUCUUUGUGUCUUGUUGAAAAGAAACCCAAAGGAGUGUUGUGUGGACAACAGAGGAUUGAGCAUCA: 0.238 ratio
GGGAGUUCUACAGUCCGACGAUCGGAGAGUCUCAGCCAGUGAAAAUGUUUGAUCGUCAUUCUAGCCUCGCAGGAUGCCAGAUCAUCAAUUACCGUACAGAUGCAAAGCAGAAAUGGUUGCUUCUCACUGGCAUAUCUGCACAGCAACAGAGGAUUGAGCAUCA: 0.148 ratio
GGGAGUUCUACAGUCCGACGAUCGAUGUUGAGAGUUUGGACAAACUCAUGAAAACCAAAAAUAUACCUGAAGCUCACCAAGAUGCAUUUAAAACUGGUUUUGCGGAAGGUUUUCUGAAAGCUCAAGCACUCACACAAAAAACCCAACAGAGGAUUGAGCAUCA: 0.19 ratio

Study 4
Target: Fragile X messenger ribonucleoprotein 1, C-terminal low-complexity region (Fmr1, Mus musculus, UniProt P35922)
Method: RNA Bind-n-Seq
Molecule type: RNA
Matrix: in vitro
Concentration: 200 nM
Notes: whole 134-nt RNA, ends assumed
With: 150 mM KCl
Baseline: input library
Reading: higher = stronger binding
Measurement: log2 enrichment
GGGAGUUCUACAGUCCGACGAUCCCUGUGCUACACAUCGUAUGUACCGAAUCGGGGAGGGGAAAAAAAGGGGUUUUUUUGGGGAAAGUAUUAUGUUACGCCGUUCGGAUCUGCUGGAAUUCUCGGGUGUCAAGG: 0.253
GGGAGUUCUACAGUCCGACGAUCCCUGUGCUACACAUCGUAUGUACCGAAUCGGGGAAAAAAAGGGGUUUUUGGGGAAAGGGGAAAGUAUUAUGUUACGCCGUUCGGAUCUGCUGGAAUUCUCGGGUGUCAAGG: 0.378
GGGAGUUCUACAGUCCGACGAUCCAAGUCCUGUGCUACACAUCGUAUGUACCGAAUCGGGGCCCGGGGCCCGGGCCCGGAAAGUAUUAUGUUACGCCGUUCGGAUCUGCACUUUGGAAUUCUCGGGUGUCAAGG: -0.828
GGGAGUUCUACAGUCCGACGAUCCUCAAGUCCUGUGCUACACAUCGUAUGUACCGAAUCGGUUGGUUGGGUUGGGGAAAGUAUUAUGUUACGCCGUUCGGAUCUGCACUUCCAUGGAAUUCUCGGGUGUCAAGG: -0.0918
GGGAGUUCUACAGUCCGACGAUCAGUCCUGUGCUACACAUCGUAUGUACCGAAUCGGGAGGGUUUUUUUGGGAAAAAGGGAAAGUAUUAUGUUACGCCGUUCGGAUCUGCACUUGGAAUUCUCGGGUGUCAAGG: 0.0997
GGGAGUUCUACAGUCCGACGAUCUGGGAGGUGGAUUUUGUUUAUUUUUUUAGCUCAUUUCCAGGGGUGGGAAUUUUUUUUUAAUAUGUGUCAUGAAUACAGUUGUUUUUGAAAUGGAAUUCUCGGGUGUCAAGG: 0.127
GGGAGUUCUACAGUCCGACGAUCUGGCCCUGGUGGCAUGCGGGGAGGAAGAGGUGGCCUCAAGGAUCGUGGUGGUCCCGGUGGAAUGUUCAGAGGUGGCCGUGGUGGAGACAGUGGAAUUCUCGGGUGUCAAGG: 0.187
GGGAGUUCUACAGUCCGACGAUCGUCCUGUGCUACACAUCGUAUGUACCGAAUCAAACCCCCCCAAAUUUAAACCCCCAAAAAAGUAUUAUGUUACGCCGUUCGGAUCUGCACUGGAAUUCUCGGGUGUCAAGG: 0.122
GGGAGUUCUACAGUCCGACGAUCCACAGACAACACGCACCCACACAGACACAGAGGGAAGGGGUUGGGAUGGGGACAGGCUGCACAGCAGGGCGGGGUAGGACCCCAGCCCCUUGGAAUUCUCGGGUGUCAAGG: 1.28
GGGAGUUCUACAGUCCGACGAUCAAGUCCUGUGCUACACAUCGUAUGUACCGAAUCGGGGUGGGGAAAGGGGAAAGGGGAAAGUAUUAUGUUACGCCGUUCGGAUCUGCACUUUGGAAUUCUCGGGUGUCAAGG: 0.823
